# Assay results pooled from the literature.
# Compare with care: the assays were run in different laboratories. “And” joins repeats or separate records; there may be more than shown. ± marks the error that the study gave.
Structure (SMILES),test,test system,conditions,EC50
COc1cc(-c2cn(-c3ccc(C(C)(C)C)cc3)nn2)[nH]c1/C=N/C12CC3CC(CC(C3)C1)C2,"Cl-/HCO3- exchange, chloride ion-selective electrode",POPC vesicles 0.5 mM,"300 s, pH 7.2, with: NaHCO3 40 mM",0.039 ± 0.002 µM
O=C(O)CCCc1ccc2ccc3cccc4ccc1c2c34,"carboxyfluorescein transport, carrier",egg PC vesicles,"pH 7.5, 25 °C, with: 1 µM Trp-Arg7",103 µM
COc1cc(-c2cn(-c3ccc(Cl)cc3)nn2)[nH]c1/C=N/C1CCCCC1,"chloride/lactate exchange, ISE chloride efflux",POPC vesicles 0.5 mM,"300 s, pH 7.2, with: sodium lactate 40 mM",0.034 ± 0.004 µM
Cc1ccc(Cl)cc1NC(=O)c1cc(-c2ccc(F)c(O)c2)on1,"membrane potential, rhodamine uptake",isolated mouse liver mitochondria,,> 100 µM
C=CC(=O)N1CCC(Oc2cc3c(Nc4ccc(Cl)c(Cl)c4F)ncnc3cc2OC)CC1,"cell proliferation, inhibitor","Ba/F3 expressing EGFR V769_D770insASV, Mus musculus",,0.0051 ± 0.0002 µM
COc1cc(-c2cn(-c3ccc(C(C)(C)C)cc3)nn2)[nH]c1/C=N/C1CCCC1,"chloride/lactate exchange, ISE chloride efflux",POPC vesicles 0.5 mM,"300 s, pH 7.2, with: sodium lactate 40 mM",0.034 ± 0.004 µM
COC(=O)CC(O)(CC(=O)OC)C(=O)O,"hydroxyl radical scavenging, in vitro",,50% scavenging,> 20 µM
CCN(CC)CCNC(=O)c1c(C)[nH]c(/C=C2\C(=O)Nc3ccc(F)cc32)c1C,"subintestinal vessel angiogenesis, inhibitor",Danio rerio embryo,"96 hpf, 50% vessel length reduction",0.5 µM
O=Cc1ccc(CO)o1,"hydroxyl radical scavenging, in vitro",,50% scavenging,> 20 µM
c1ccc2c(c1)[nH]c1ccccc12,developmental toxicity,zebrafish (Danio rerio) embryos,6 to 120 hpf,15.2 µM
CC[C@H](C)[C@@H]1NC(=O)[C@H](CCCNC(=N)N)NC(=O)[C@H](CC(=O)O)NC(=O)[C@H](CC(C)C)NC(=O)[C@H](CCCCN)NC(=O)[C@H](CC(C)C)NC(=O)CNC(=O)[C@H](Cc2ccccc2)NC(=O)[C@@H](NC(=O)CNC(=O)[C@H](CCCCN)NC(=O)[C@H](CO)NC(=O)[C@H](CC(C)C)NC(=O)CNC(=O)[C@H](CCCCN)NC(=O)[C@H](CCCCN)NC(=O)[C@H](CC(N)=O)NC(=O)[C@H](C)NC(=O)CNC(=O)[C@H](CCCCN)NC(=O)[C@H](Cc2ccc(O)cc2)NC(=O)[C@H](CCCCN)NC(=O)[C@H](CCCNC(=N)N)NC(=O)[C@H](C)NC(=O)[C@H](CC(N)=O)NC(=O)[C@@H]2CCCN2C(=O)[C@H](Cc2c[nH]cn2)NC(=O)[C@H](CCC(=O)O)NC(=O)[C@H](CCC(N)=O)NC(=O)CNC(=O)[C@@H]2CCCN2)CSSC[C@@H](C(=O)O)NC(=O)CNC(=O)[C@H](CC(C)C)NC(=O)CNC(=O)[C@H](CO)NC(=O)[C@H](CCSC)NC(=O)[C@H](CO)NC(=O)CNC1=O,"annualized growth velocity change, Emax model on Cmax",achondroplasia patients,baseline to day 183,1.5 ng/mL
COC(=O)c1ccc(O)c(O)c1,"hydroxyl radical scavenging, in vitro",,50% scavenging,1.8 ± 0.16 µM
Clc1ccc(Nc2nnc(Cc3ccncc3)c3ccccc23)cc1,"subintestinal vessel angiogenesis, inhibitor",Danio rerio embryo,"96 hpf, 50% vessel length reduction",0.1 µM
CC(C)(C)OC(=O)N1CCC(OCc2nc(-c3ccncc3)no2)CC1,"short-circuit current reduction, agonist, Ussing chamber",mouse descending colon mucosa,"basolateral addition, with: VIP 10 nM",4.2 µM
c1ccc2nc3ccccc3cc2c1,developmental toxicity,zebrafish (Danio rerio) embryos,6 to 120 hpf,13.5 µM
N[C@@H](CO)C(=O)O,"allosteric inhibitor, NADH absorbance",,"pH 9.0, Hill fit, with: substrate 10 mM, NAD+ 1 mM",1600 ± 100 µM
COc1cc2c(Nc3ccc(Br)cc3F)ncnc2cc1OCC1CCN(C)CC1,"subintestinal vessel angiogenesis, inhibitor",Danio rerio embryo,"96 hpf, 50% vessel length reduction",10 µM
COc1cc(NC(=O)c2cc(-c3cccc(O)c3)on2)cc(OC)c1OC,"membrane potential, rhodamine uptake",isolated mouse liver mitochondria,,> 100 µM
OC[C@H]1O[C@@H](Oc2cc3c(O)cc(O)cc3[o+]c2-c2cc(O)c(O)c(O)c2)[C@H](O)[C@@H](O)[C@@H]1O.[Cl-],"hydroxyl radical scavenging, in vitro",,50% scavenging,0.64 ± 0.06 µM
[H]/N=C(/N)c1ccc(NCc2nc3cc(C(=O)N(CCC(=O)O)c4ccccn4)ccc3n2C)cc1,"platelet activation, inhibitor, measured: ATP release",rat platelet-rich plasma,"20% plasma, with: thrombin",0.033 µM
CN(C)CCCNC(=O)[C@@H](N)CSSC[C@H](N)C(=O)NCCCN(C)C,L-cystine solubility,,"72 h, 20 °C",0.114 µM
O=c1c(O)c(-c2ccc(O)c(O)c2)oc2cc(O)cc(O)c12,"hydroxyl radical scavenging, in vitro",,50% scavenging,1.2 ± 0.11 µM
CCCCCCNC(=O)NCCC/C=C\CCCCCCC(=O)O,vasorelaxation,bovine coronary artery rings,with: U46619,3.5 µM
COc1c(-c2ccc(O)c(O)c2)oc2cc(O)cc(OC)c2c1=O,"hydroxyl radical scavenging, in vitro",,50% scavenging,0.18 µM
O=C(NC[C@H]1CN(c2ccc(N3CCOCC3=O)cc2)C(=O)O1)c1ccc(Cl)s1,"platelet activation, inhibitor, flow cytometry, measured: CD62P",human whole blood,with: tissue factor,0.031 µM
COc1ccc(-c2cc(C(=O)Nc3cc(Cl)ccc3C)no2)cc1O,"membrane potential, rhodamine uptake",isolated mouse liver mitochondria,,> 100 µM
O=[N+]([O-])c1ccc2ccc3c([N+](=O)[O-])ccc4ccc1c2c43,developmental toxicity,zebrafish (Danio rerio) embryos,6 to 120 hpf,0.88 µM
O=c1c(O[C@@H]2O[C@H](CO)[C@H](O)[C@H](O)[C@H]2O)c(-c2ccc(O)c(O)c2)oc2cc(O)cc(O)c12,"hydroxyl radical scavenging, in vitro",,50% scavenging,0.17 µM
CC1CNc2c(cccc2S(=O)(=O)N[C@@H](CCCNC(=N)N)C(=O)N2CC[C@@H](C)C[C@@H]2C(=O)O)C1 (stereo partly shown),"platelet activation, inhibitor, ATP release",mouse platelet-rich plasma,"20% plasma, with: thrombin",0.007 µM
O=c1c(O[C@@H]2O[C@@H](CO)[C@H](O)[C@H]2O)c(-c2ccc(O)c(O)c2)oc2cc(O)cc(O)c12,"hydroxyl radical scavenging, in vitro",,50% scavenging,0.46 ± 0.05 µM
NCCCC[C@@H]1NC(=O)[C@@H](Cc2c[nH]c3ccccc23)NC(=O)[C@H](c2ccccc2)NC(=O)[C@@H]2C[C@@H](OC(=O)NCCN)CN2C(=O)[C@H](Cc2ccccc2)NC(=O)[C@H](Cc2ccc(OCc3ccccc3)cc2)NC1=O,measured: GH AUC,"healthy volunteers, plasma","subcutaneous, with: GHRH",0.33 ng/mL and 0.3 ng/mL

# Excerpt of the above:
Structure (SMILES),test,test system,conditions,EC50
CCCCCCNC(=O)NCCC/C=C\CCCCCCC(=O)O,vasorelaxation,bovine coronary artery rings,with: U46619,3.5 µM
COc1c(-c2ccc(O)c(O)c2)oc2cc(O)cc(OC)c2c1=O,"hydroxyl radical scavenging, in vitro",,50% scavenging,0.18 µM
O=C(NC[C@H]1CN(c2ccc(N3CCOCC3=O)cc2)C(=O)O1)c1ccc(Cl)s1,"platelet activation, inhibitor, flow cytometry, measured: CD62P",human whole blood,with: tissue factor,0.031 µM
COc1ccc(-c2cc(C(=O)Nc3cc(Cl)ccc3C)no2)cc1O,"membrane potential, rhodamine uptake",isolated mouse liver mitochondria,,> 100 µM
O=[N+]([O-])c1ccc2ccc3c([N+](=O)[O-])ccc4ccc1c2c43,developmental toxicity,zebrafish (Danio rerio) embryos,6 to 120 hpf,0.88 µM
